Measurements collected from several papers.
Parts stem from different laboratories: compare values within a part only.

Study 1
Target: Ras GTPase-activating protein-binding protein 1, full length (G3BP1, Homo sapiens, UniProt Q13283)
Chain of UniProt Q13283 (whole entry, looked up): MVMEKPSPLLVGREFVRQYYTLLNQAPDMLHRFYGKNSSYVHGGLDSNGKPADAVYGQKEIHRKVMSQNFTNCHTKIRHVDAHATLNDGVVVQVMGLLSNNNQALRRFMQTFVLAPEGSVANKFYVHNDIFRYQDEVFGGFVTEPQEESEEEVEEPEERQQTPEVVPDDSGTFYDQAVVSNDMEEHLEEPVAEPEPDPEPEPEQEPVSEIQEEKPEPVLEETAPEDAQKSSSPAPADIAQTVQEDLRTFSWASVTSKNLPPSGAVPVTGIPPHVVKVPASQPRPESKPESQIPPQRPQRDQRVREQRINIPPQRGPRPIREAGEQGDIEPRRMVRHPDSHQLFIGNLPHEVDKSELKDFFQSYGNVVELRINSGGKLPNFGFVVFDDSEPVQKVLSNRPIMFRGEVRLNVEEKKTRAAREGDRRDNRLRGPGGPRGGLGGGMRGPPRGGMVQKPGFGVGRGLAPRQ
Technique: RNA Bind-n-Seq
Form: RNA
Matrix: in vitro
Tested at: 200 nM
Notes: whole 134-nt RNA, ends assumed
With: 150 mM LiCl
Baseline: input library
Direction: higher = stronger binding
All molecules: 7-deaza-guanosine replaces G
All sequences stand within: GGGAGUUCUACAGUCCGACGAUC … UGGAAUUCUCGGGUGUCAAGG
| Sequence | log2 enrichment |
| --- | --- |
| CCUGUGCUACACAUCGUAUGUACCGAAUCGGGUUUUUUUGGGUUUUUGGGAAAAAAAGGGAAAGUAUUAUGUUACGCCGUUCGGAUCUGC | -0.545 |
| CCUGUGCUACACAUCGUAUGUACCGAAUCGGGAAAAAAAGGGAAAAAGGGAAAAAAAGGGAAAGUAUUAUGUUACGCCGUUCGGAUCUGC | 0.0329 |
| AAGUCCUGUGCUACACAUCGUAUGUACCGAAUCGGGGAGGGGUUUGGGGAAAGGGGAAAGUAUUAUGUUACGCCGUUCGGAUCUGCACUU | -0.0721 |
| CACAGACAACACGCACCGACACAGACACAGAGGGAAGGGGUUGGGAUGGGGACAGGGUGCACAGCAGGGCGGGGUAGGACCCCAGCCCCU | 0.481 |
| UGCUAGGACUUGAUGGAUCACUAGUUUUUCUGGUAAGUAAAACUAAUUUUUUUUUUUUUUUUUUGAGACGGAAUCUCACUCUGUCACCCA | 1.35 |
| AGUCCUGUGCUACACAUCGUAUGUACCGAAUCAAACCCAAAUUUUUAAACCCCCAAAAAAGUAUUAUGUUACGCCGUUCGGAUCUGCACU | 1.59 |
| ACCAUGCAGGUGGGCAUCUUUGGGAAGUGGGGCAAAAAGGGGAUAGGGAGGGGGGUAACACUUUGGGAACAGGUGGUCCCAGGUCGUUUC | 0.539 |
| UAACUUGAGAGGAGGAUCUGAUGGAUAUGGCAGUGGACGUGGAUUUGGGGAUGGCUAUAAUGGGUAUGGAGGAGGACCUGGAGGUGGCAA | -0.191 |
| UUUACAAAUAUGCCCAAGACUUCUUGGUGGCUAUUGCAGAGCCAGUGUGCCGACCAACCCAUGUGCAUGAGUACAAACUAACUGCCUACU | 0.109 |
| AAGUCCUGUGCUACACAUCGUAUGUACCGAAUCGGGAGGGUUUUUGGGUUUUUGGGAAAGUAUUAUGUUACGCCGUUCGGAUCUGCACUU | -0.61 |
| GCAGGAAGUAAAAACAAAUGGAAAUGCUUCGGAUAGUUGCAGGGGUGGGGGUUGCUAAGGAAAGGGUGGGAUGGGAGUGGGUAAAGAGUU | 0.184 |

Study 2
Target: Prothrombin, mature alpha-thrombin (F2, Homo sapiens, UniProt P00734)
Technique: aptamer microarray, sandwich
Form: DNA with 2'F-ANA
Matrix: in vitro
Tested at: 200 nM
Notes: whole 15-mer aptamer, many near background
With: Cy3 exosite-II aptamer, 400 nM
Direction: higher = stronger binding
Sequence: GGTTGGTGTGGTTGG
| Modification | mean fluorescence intensity [a.u.] |
| --- | --- |
| 2'F-ANA at 1 2 3 4 8 9 10 14 15 | 199 |
| 2'F-ANA at 1 4 5 6 12 | 117 |
| 2'F-ANA at 2 4 6 7 8 12 | 586 |
| 2'F-ANA at 2 3 6 7 8 9 11 13 | 549 |
| 2'F-ANA at 1 5 8 10 11 14 15 | 65.1 |
| 2'F-ANA at 1 2 3 5 6 8 9 10 11 15 | 52 |
| 2'F-ANA at 2 4 5 6 7 9 13 14 15 | 71.3 |
| 2'F-ANA at 2 3 4 7 14 | 360 |
| 2'F-ANA at 2 4 6 8 11 12 15 | 439 |
| 2'F-ANA at 1 2 3 4 6 9 11 12 13 15 | 172 |
| 2'F-ANA at 1 3 6 8 10 12 14 | 62.8 |
| 2'F-ANA at 1 3 4 6 7 8 11 13 14 15 | 70.9 |
| 2'F-ANA at 1 2 4 6 7 9 10 13 15 | 53.9 |
| 2'F-ANA at 2 4 6 7 9 11 12 15 | 331 |
| 2'F-ANA at 2 3 4 6 7 8 9 13 15 | 362 |
| 2'F-ANA at 1 2 4 5 9 13 | 92.3 |
| 2'F-ANA at 1 3 6 7 9 10 15 | 81.4 |
| 2'F-ANA at 4 5 6 14 | 46.5 |
| 2'F-ANA at 1 2 3 4 5 6 7 8 9 10 12 15 | 127 |
| 2'F-ANA at 1 3 4 5 8 12 13 14 15 | 46.6 |
| 2'F-ANA at 3 5 7 8 11 12 13 14 | 71.8 |

Study 3
Target: Centromere-binding protein 1, full length, His-tagged (CBF1, Saccharomyces cerevisiae, UniProt P17106, residues 1-351)
Chain of UniProt P17106 (whole entry, looked up): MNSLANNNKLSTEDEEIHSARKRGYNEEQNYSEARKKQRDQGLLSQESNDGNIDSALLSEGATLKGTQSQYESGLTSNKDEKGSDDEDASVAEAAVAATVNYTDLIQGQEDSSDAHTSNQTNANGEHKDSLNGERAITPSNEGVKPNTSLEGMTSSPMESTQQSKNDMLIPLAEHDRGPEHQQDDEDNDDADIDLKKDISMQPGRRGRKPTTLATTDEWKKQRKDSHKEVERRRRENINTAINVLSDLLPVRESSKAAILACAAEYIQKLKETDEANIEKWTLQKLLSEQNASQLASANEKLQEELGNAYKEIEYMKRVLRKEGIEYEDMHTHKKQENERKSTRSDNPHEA
Technique: competition protein-binding microarray
Form: double-stranded DNA, one strand shown
Matrix: in vitro
Tested at: 2 µM
Notes: whole 60-bp probe, lowest competitor level
With: Pho4 competitor, 0.05 µM
Direction: higher = stronger binding
All sequences stand within: … GTCTTGATTCGCTTGACGCTGCTG
| Sequence | fluorescence intensity [a.u.] |
| --- | --- |
| GGTCTAAACCCATCTCACGTTCCCTATTAGTGGGTG | 105 |
| CGGGGTTAAGTTTGTCACAATACTTGCTTGCAGCAG | 81 |
| GTATGCACTTGAAACAACGTGTAGACCATCAATTGG | 120 |
| GAATTTTGCAAATCCAACGTGGCCGGTTGACCAGTA | 67.2 |
| CTTCTGTAAATTTGTTGAGTGGGTGGACGCGCCCCG | 83.2 |
| ATACTATCATTAACTTCCGTGACTCGATTGGTTTGC | 113 |
| CTTTGAGCACCACTCCACGTGGGCGCAGGCGCAGCG | 397 |
| TGTTCTTATGGCTTGCATGTGCTCTGTATGTATATA | 184 |
| AGCAGTGCTTTTACCCCCGTGCTTTTCGTTACAATA | 174 |
| CGTCCTAGTGATTGCCCGGTGGGTGCCATGAGGAAG | 88.4 |
| CGGGGTTAAGTTTGTCACGTTACTTGCTTGCAGCAG | 630 |
| CGTCCTAGCGATTGACCTGTGGGTGCCATGAGGAAG | 70.9 |
| CGGGGTTAAGTTTGGTACGTGGGTGGCTTGCAGCAG | 63 |
| CGTCCTAGCGATTGACCCGTGGGTGCCATGAGGAAG | 93.8 |
| CTAACGAAGGTTTGTCACCAGACTTACAAGCCAAGT | 79.4 |
| TCTAAATTGGAGCACAGCATGACAGTTGCCACCTCT | 65.8 |
| GTCTTGTCTCATTGTCAAGTGGGTGTCCCCACTTCA | 90.7 |
| AGGGTGGTATGGATACACGGGAAGCTTGGGTGCTGC | 68.2 |
| CCTCGGCTGTTCAGCAACGTGAGATGGTTGTTGTTA | 98.4 |
| AAATTACTAAGTTTTCACGTGTGCTACCCCGTATGA | 802 |
| CTTCTGTAAATTTGAATGGTGGGTGGACGCGCCCCG | 87.3 |
| AGAAAAAAACATGGCCACATGTAGTATCGACTGACA | 94 |

Study 4
Target: Interferon regulatory factor 7, full length, phosphomimetic (IRF7, Homo sapiens, UniProt Q92985, residues 1-503, S101K/S471D/S472D/S475D/S476D/S477D/S483D/S484D/S487D)
Chain of UniProt Q92985 (whole entry, unmodified, looked up): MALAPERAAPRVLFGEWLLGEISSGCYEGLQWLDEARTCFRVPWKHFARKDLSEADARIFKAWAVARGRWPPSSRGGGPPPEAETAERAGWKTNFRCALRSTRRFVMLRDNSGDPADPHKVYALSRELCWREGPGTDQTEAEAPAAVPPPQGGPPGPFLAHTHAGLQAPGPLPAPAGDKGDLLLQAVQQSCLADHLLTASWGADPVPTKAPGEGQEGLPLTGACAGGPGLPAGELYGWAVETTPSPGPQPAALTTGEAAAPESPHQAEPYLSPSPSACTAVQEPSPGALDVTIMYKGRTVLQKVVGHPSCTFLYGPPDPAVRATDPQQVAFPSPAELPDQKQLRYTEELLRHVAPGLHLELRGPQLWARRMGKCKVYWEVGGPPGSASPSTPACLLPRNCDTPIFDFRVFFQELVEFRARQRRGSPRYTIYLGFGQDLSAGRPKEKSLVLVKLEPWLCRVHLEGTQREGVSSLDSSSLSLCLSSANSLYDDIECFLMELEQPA
Technique: protein-binding microarray
Form: double-stranded DNA, one strand shown
Matrix: in vitro
Tested at: 250 nM
Notes: 60-bp whole probe
With: salmon DNA 0.4 mg/ml
Baseline: random background probes
Direction: higher = stronger binding
All sequences stand within: GCCTAGCAC … GTCTTGATTCGCTTGACGCTGCTG
| Sequence | log fluorescence [z-score] |
| --- | --- |
| TTGGGTTTCGACACTGGGTTAGTGCTA | 2.34 |
| GACGGACTGGGGACTGGGGACGTGCTA | -0.388 |
| CAAAGAAAAAGAAAAAAAAAGGTGCTA | 0.587 |
| TTAGCTCTCCTTATCCTTTAGTGCTAG | 0.109 |
| GACGATATCGGGTATTGAGACGTGCTA | -0.317 |
| TCACCTTTCCTTTGCCTACTGTGCTAG | 1.18 |
| TCAGCTCTTTCGTTACTTACTGTGCTA | 0.61 |
| TTAGGTTTCATTTCCCTTTAGTGCTAG | 6.24 |
| TTAGGACTGGGTCTGGGTTAGTGCTAG | -0.189 |
| TTAGATTTCAGTTCCGATCAGTGCTAG | 1.07 |
| AGACGAATCATATCAAAATTGTGCTAG | -0.0418 |
| CGCTTTCTTTAACTCATTTTGTGCTAG | 3.8 |
| GACGATTTCATTATCGAGACGTGCTAG | 0.527 |
| GACGAACTGCGGACTGGAGACGTGCTA | -0.786 |
| TTTGCTCTGTGCATAGGCCTGTGCTAG | -0.2 |
| GACGATATCGGGACGGGAGACGTGCTA | -0.307 |
| GAGGATTTCAGACTGGAGACGTGCTAG | -0.59 |
| TTAGATATCAGTCTCGTTTAGTGCTAG | 2.46 |
| TTTGGTATCGACTATCGGTTAGTGCTA | 0.281 |
| GACGGACTGGGGACTGGCGACGTGCTA | -0.853 |
| GACGGACTGCGTATCGGGACGTGCTAG | -0.78 |
| CTCAGTTTATTTATTTTTACGTGCTAG | 0.377 |
| CAGCTTTTATCCCTGACAGAGTGCTAG | 0.0536 |
| TTCCAATTCTTTTTATGCTTGTGCTAG | 1.27 |
| GACGGTTTACTTTCCCTGACGTGCTAG | 0.617 |

Some of these lines once more (study 4):
| Sequence | log fluorescence [z-score] |
| --- | --- |
| TTTGGTATCGACTATCGGTTAGTGCTA | 0.281 |
| TTTGCTCTGTGCATAGGCCTGTGCTAG | -0.2 |
| TTGGGTTTCGACACTGGGTTAGTGCTA | 2.34 |
| GACGAACTGCGGACTGGAGACGTGCTA | -0.786 |
